Results gathered from unrelated publications.
Protocols differ between the studies behind these lines.

Compound | test | test system | setting | scale | quantity | result
Cc1cc(-c2nnc(N)nc2-c2ccc(F)cc2)cc(Cl)n1 | item: Myositis | IO-naive mCRPC patients, male | oral, dose not given, treatment-related, grade 1 |  | patients with immune-mediated AE | 0%
CNC(=O)c1cc(Oc2ccc(NC(=O)Nc3cc(C(C)(C)C)nn3-c3ccc4ncccc4c3)c(F)c2)ccn1 |  | patients | oral, dose not given, cycles 1 and 2, Medium Cmax subgroup |  | patients with grade 3 musculoskeletal disorders | 27%
COc1ccc([C@@H](O)c2cc(-c3ncnc4cc(N5CCOCC5)ccc34)c(F)cc2Cl)nn1 |  | locally advanced rectal cancer patients | 100 mg, drug-related adverse events, together with: capecitabine and radiotherapy |  | patients with anemia | 17%
COc1cc(Nc2ncc3c(n2)-c2ccc(Cl)cc2C(c2c(F)cccc2OC)=NC3)ccc1C(=O)O | item: Dysgeusia, all grades | cancer patients, phase 1/2 | oral, dose not given, together with: pembrolizumab |  | patients with adverse event | 13%
CNC(=O)c1ccc(-c2cnc3ncc(Cc4ccc5ncccc5c4)n3n2)cc1F | item: Hypoalbuminemia, all grades | cancer patients | oral, 600 mg twice daily, other expansion cohort, any causality |  | patients with adverse event | 6%
Cc1cc(NC2CCN(C(=O)OC3CCN(C(=O)/C=C/CN(C)C)C3)CC2)n2ncc(C(C)C)c2n1 (stereo not drawn) | CTCAE v4.0, item: Constipation | patients with advanced solid tumours | oral, dose not given, all schedules, grade 3 or higher |  | patients with TEAE | 0%
O=C(Nc1nc2cccc(-c3ccc(CN4CCS(=O)(=O)CC4)cc3)n2n1)C1CC1 |  | rheumatoid arthritis patients | oral, 100 mg twice daily, 4 weeks, TEAE regardless of relatedness |  | patients with Hypercholesterolemia | 0%
C[C@@H](Nc1cc(F)cc(F)c1)c1cc(C(=O)N(C)C)cc2c(=O)cc(N3CCOCC3)oc12 | CTCAE v4, item: SIRS | patients with advanced solid tumours | oral, dose not given, phase I dose expansion |  | patients discontinuing for AE | 0%
CCOc1c([C@H](C)n2nc(C)c3c(N)ncnc32)cc(Cl)c(F)c1[C@@H]1CNC(=O)C1 | item: QTcF change ≤30 ms | previously treated B-cell malignancy | oral, 15 mg once daily, baseline QTcF ≤450 ms | reference: baseline | patients | 100%

Repeated from above:
Compound | test | test system | setting | scale | quantity | result
O=C(Nc1nc2cccc(-c3ccc(CN4CCS(=O)(=O)CC4)cc3)n2n1)C1CC1 |  | rheumatoid arthritis patients | oral, 100 mg twice daily, 4 weeks, TEAE regardless of relatedness |  | patients with Hypercholesterolemia | 0%
